Experimental data from different studies.
Compare with care: the assays were run in different laboratories. ± marks the error that the study gave.

With `COc1cccc(-c2ccc(NC(=O)C3=C(C(=O)O)CCC3)c(F)c2)c1` the AUC(0-24h) was 159000 ng·h/mL (human, male, plasma; oral, 40 mg once daily, day 13, geometric mean).
For `CN1CCN(c2ccc3nc(-c4c(N)c5c(F)cccc5[nH]c4=O)[nH]c3c2)CC1`, the AUC was 1200 ng·h/mL (patients, plasma; oral, 300 mg daily 5 days on 2 off, day 19, AUC 0-24 h minimum, with: gemcitabine and capecitabine).
For `CCN(CC)CCNC(=O)c1c(C)[nH]c(/C=C2\C(=O)Nc3ccc(F)cc32)c1C`, “median trough plasma concentration” read 31 ng/mL (human, plasma; oral, 20 mg/m2, day 14).
`CC(C)[C@H](NC(=O)[C@@H]1CCCN1C(=O)[C@H](CCCNC(=N)N)NC(=O)[C@H](CS)NC(=O)[C@H](Cc1c[nH]c2ccccc12)NC(=O)[C@H](CCCNC(=N)N)NC(=O)[C@@H](Cc1ccccc1)NC(=O)[C@H](Cc1c[nH]cn1)NC(=O)[C@H](CCC(=O)O)NC(=O)[C@H](CS)NC(=O)[C@H](CS)NC(=O)[C@H](CCCCN)NC(=O)[C@@H]1CC(=O)N[C@@H](CCCNC(=N)N)C(=O)N[C@@H]([C@@H](C)O)C(=O)N[C@@H](CC(=O)O)C(=O)N[C@H](Cc2ccc(O)cc2)C(=O)N1)C(N)=O` [technetium-99m labelled] has an uptake ratio of 0.03 (C57 mouse, female, B16/F1 melanoma; intravenous, 2 h, with: NDP-MSH 10 µg co-injected; relative to: tumour over kidneys).
For `Cc1ccc(Nc2c(F)cccc2Cl)c(CC(=O)O)c1`, the EC20 was > 800 µM (cytochrome c release, ELISA; BALB/cByJ female mouse liver mitochondria; 30 min; relative to: alamethicin maximal release).
With `CC(C)(c1ccc(O)cc1)c1ccc(O)cc1` the half-life was 3.76 h (GC-MS; exposure tank water with snails, charcoal-filtered tap water; 250 ng/L nominal, 22 °C).
The AUC(0-tau) mean of `Cn1c(-c2ccc(C(N)=O)cc2F)nnc1C(C)(C)Oc1c(F)cc(Cl)cc1F` is reported as 2620 ng·h/mL (healthy young Japanese subjects, plasma; oral, 20 mg once daily, day 18, 14 days dosing).
With `CCCC[C@@H]1NC(=O)[C@@H](NC(=O)[C@H](CCC(=O)O)NC(=O)CNC(=O)CN2CCN(CC(=O)O)CCN(CC(=O)O)CCN(CC(=O)O)CC2)CCCCNC(=O)C[C@@H](C(N)=O)NC(=O)[C@H](C(C)C)NC(=O)[C@@H]2CCCN2C(=O)[C@H](CCCNC(=N)N)NC(=O)CNC(=O)[C@H](Cc2c[nH]c3ccccc23)NC(=O)[C@H](CCCNC(=N)N)NC(=O)[C@@H](Cc2ccccc2)NC(=O)[C@H](Cc2c[nH]cn2)NC(=O)[C@H](CCC(=O)O)NC1=O` [indium-111 labelled] the tissue uptake was 14.9 ± 1.5 %ID/g (normal C57 mice, kidneys; intravenous, 0.037 MBq, 4 h).
`C[C@@H]1C[C@H]2[C@@H]3CCC4=CC(=O)C=C[C@]4(C)[C@@]3(F)[C@@H](O)C[C@]2(C)[C@@]1(O)C(=O)CO` gave an EC20 of > 200 µM (mitochondrial swelling; BALB/cByJ female mouse liver mitochondria; 30 min, with: succinate + rotenone; relative to: CaCl2 maximal swelling).
The alpha half-life of `NCCCC[C@@H]1NC(=O)[C@@H](Cc2c[nH]c3ccccc23)NC(=O)[C@H](c2ccccc2)NC(=O)[C@@H]2C[C@@H](OC(=O)NCCN)CN2C(=O)[C@H](Cc2ccccc2)NC(=O)[C@H](Cc2ccc(OCc3ccccc3)cc2)NC1=O` is reported as 1.7 ± 0.6 h (radioimmunoassay; healthy human male volunteers, plasma; subcutaneous, 200 µg).
For `Nc1nc2ncc(CNc3ccc(C(=O)N[C@@H](CCC(=O)O)C(=O)O)cc3)nc2c(=O)[nH]1`, the EC20 was > 400 µM (cytochrome c release, ELISA; BALB/cByJ female mouse liver mitochondria; 30 min; relative to: alamethicin maximal release).
The elimination half-life of `COc1cccc(CN)c1O` is reported as 0.6 h (C57BL/6N mouse, male, spleen; intraperitoneal, 200 mg/kg).
`COc1cc(/C=C/C(=O)CC(=O)/C=C/c2ccc(O)c(OC)c2)ccc1O` — result for “brain uptake ratio”: 5.28 (I-125 label; C57BL/6J mouse, cerebral cortex; intranasal vs intraperitoneal, 10 µg/mouse IN, 100 µg/mouse IP, 8 h; relative to: intranasal over intraperitoneal).
Under “predose plasma concentration”, `C[C@H](Oc1ccc(-c2nc(-c3ccc4[nH]cnc4c3)no2)cc1C(F)(F)F)C(F)(F)F.Cl` is recorded as 7 ± 1 nM (cynomolgus monkey aneurysm model, plasma; 0.1 mg/kg once daily, 12 months dosing).
With `CNC(=O)c1cc(Oc2ccc(NC(=O)Nc3ccc(Cl)c(C(F)(F)F)c3)cc2)ccn1` the t1/2 was 41 ± 7.41 h (LC-MS/MS; nude mouse subcutaneous tumour model, tumour tissue; intratumoral, 2 mg/kg, PDC 4 miR-3609).
Under “brain to blood SUV ratio”, `[11CH3]c1cnccc1N` is recorded as 1.85 ± 0.23 (ex vivo gamma counting; Sprague Dawley rat, whole brain and blood; intravenous, dose not given, 60 min).
`Cc1cc(C(=O)NC(C)(C)COc2cccc3c2C(N)=NS(=O)(=O)N3)cc(C)n1` gave a bioavailability of 0.22% (male Sprague-Dawley rat, plasma; oral, 30 mg/kg, single dose).
`Nc1ccc(-c2nc(-c3ccc(Oc4ccc(C(F)(F)F)cc4)cc3)no2)cc1` gave an elimination half-life of 36 h (ICR mice, female, plasma; oral, 50 mg/kg).
`COc1ccc(-c2nc3ccccc3s2)cc1OCc1nnc(-c2ccc(N(C)C)cc2)o1`: “minimal effective dose” 300 mg/kg (seizure protection; albino mouse, scPTZ-induced seizure; ip, 0.5 h).
With `CS(=O)(=O)n1cc2c(n1)CN([C@H]1CO[C@H](c3cc(F)ccc3F)[C@@H](N)C1)C2` the AUC(0-24h) was 8.2 µM·h (healthy male human, plasma; oral, 25 mg, fasted, geometric mean).
With `O=C(/C=C/c1ccc(O)c(O)c1)c1ccc(O)cc1O` the EC20 was > 200 µM (mitochondrial swelling; BALB/cByJ female mouse liver mitochondria; 30 min, with: succinate + rotenone; relative to: CaCl2 maximal swelling).
The IC50 of `CC(C)(C)c1nn(-c2cc(OCc3cn(Cc4ccccc4Br)nn3)c(Cl)cc2Cl)c(=O)o1` is reported as 9.2 ± 1.2 µM (Toxoplasma gondii; intracellular parasite growth, luminescence; HFF, wild type, NanoLuc reporter; 96 h).
`C=C1/C(=C\C=C2/CCC[C@]3(C)[C@@H]([C@H](C)CCCC(C)(C)O)CC[C@@H]23)C[C@@H](O)C[C@@H]1O` gave a body weight of 288 ± 19.4 g (rat; intraperitoneal, 2.56 nmol/kg/day for four days).
For `CCCCNC(=O)CN1CCN(CC(=O)[O-])CCN(CC(=O)[O-])CCN(CC(=O)[O-])CC1.[67Ga+3]`, “intact radiolabelled complex” read 83.9 ± 0.5% (RP-TLC; murine plasma; 24 h, 37 °C, 5% CO2).
`Cc1nc2cccc(OCC(C)(C)C(=O)NC(C)C)c2c(N)c1C(=O)O` gave a Tmax of 1.5 h (Sprague-Dawley rat both sexes, plasma; dietary, 30 mg/kg/day, day 90).
Under “serum trough concentration”, `C[C@H]1O[C@@H](O[C@H]2[C@@H](O)C[C@H](O[C@H]3[C@@H](O)C[C@H](O[C@H]4CC[C@@]5(C)[C@H](CC[C@@H]6[C@@H]5C[C@@H](O)[C@]5(C)[C@@H](C7=CC(=O)OC7)CC[C@]65O)C4)O[C@@H]3C)O[C@@H]2C)C[C@H](O)[C@@H]1O` is recorded as 1.26 ± 0.04 nmol/L (patients without P-gp inhibitors, spironolactone excluded, serum; oral).
`CC(C)NC[C@@H](C(=O)N1CCN(c2ncnc3c2[C@H](C)C[C@H]3O)CC1)c1ccc(Cl)cc1` gave a Cmax of 45.3 ng/mL (human, hepatic impairment Healthy (Child-Pugh), plasma; oral, 100 mg single, geometric mean).
`Nc1ccn([C@@H]2CS[C@H](CO)O2)c(=O)n1` has an EC20 of > 400 µM (mitochondrial swelling; BALB/cByJ female mouse liver mitochondria; 30 min, with: succinate + rotenone; relative to: CaCl2 maximal swelling).
With `CC1=C2C[C@H]3[C@@H](CC[C@@H]4C[C@H](NS(C)(=O)=O)CC[C@@]43C)[C@@H]2CC[C@@]2(C1)O[C@@H]1C[C@H](C)CN[C@H]1[C@H]2C` the Cmax was 10.6 ng/mL (patients, plasma; oral, 40 mg single, day -7, cycle 1).
The AUCinf of `O=C(c1cccnc1-c1ccncc1)N1CCC(O)(Cc2ccccc2)CC1` is reported as 4220 ng·h/mL (healthy human, plasma; oral, 600 mg once daily, day 1, arithmetic mean).
Under “cathodic peak potential”, `CC1=C(COc2ccc(C(=O)O)cc2)C(=O)c2ccccc2C1=O` is recorded as -0.628 V (cyclic voltammetry; DMSO; first wave, vs Ag/AgCl).
For `O=c1ccc2ccc(O)c(O)c2o1`, the mean concentration was 19.6 nM (human, fasted baseline, cerebrospinal fluid).
`CCCC[C@H](NC(C)=O)C(=O)N[C@H]1CCC(=O)NC[C@@H](C(=O)N[C@@H](Cc2c[nH]c3ccccc23)C(N)=O)NC(=O)[C@H](CCCNC(=N)N)NC(=O)[C@@H](Cc2ccccc2)NC(=O)[C@H](Cc2c[nH]cn2)NC1=O` has a Tmax of 0.5 h (beagle dog, male, plasma; subcutaneous, 40.0 mg/kg daily, day 14).
The Vz/F (mean) of `CNC(=O)c1ccc(-c2cnc3ncc(Cc4ccc5ncccc5c4)n3n2)cc1F` is reported as 263 L (human, severe hepatic impairment (Child-Pugh C), plasma; oral, 200 mg single dose).
`O=C(NC[C@H]1CN(c2ccc(N3CCOCC3=O)cc2)C(=O)O1)c1ccc(Cl)s1`: “apparent clearance CL/F” 42.8 ± 12.2 mL/min/kg (Sprague-Dawley rat, male, plasma; oral, 10 mg/kg, with: naringenin 10 mg/kg/day oral, 2 weeks).
`O=C(O)c1cccc(CN2CN(C3CCCCC3)C3(CCN(CCCC(=O)c4ccccc4)CC3)C2=O)c1` has a rearing activity of 2 counts (rat Sprague Dawley female; 300 mg/kg/day, 4 to 8 min after start, first session).
The AUC(0-tau) of `COCCCCn1c(C(=O)N(CC(C)C)[C@@H]2CNC[C@H](C(=O)N3CCOCC3)C2)nc2ccccc21` is reported as 3940 ng·h/mL (non-elderly human, plasma; oral, 80 mg once daily, day 7).
With `Cc1c(O)cccc1C(=O)N[C@@H](CSc1ccccc1)[C@H](O)CN1C[C@H]2CCCC[C@H]2C[C@H]1C(=O)NC(C)(C)C` the EC20 was > 200 µM (cytochrome c release, ELISA; BALB/cByJ female mouse liver mitochondria; 30 min; relative to: alamethicin maximal release).
`O=C(Cc1cccc(OC(F)(F)F)c1)Nc1ccc(CCCCc2nnc(NC(=O)Cc3ccccn3)s2)nn1` gave an AUC(0-8h) of 7610 ng·h/mL (non-compartmental analysis; human; oral, 600 mg twice daily, fed, steady state, cycle 1 day 15).
`O=P(O)(O)C(Cl)(Cl)P(=O)(O)O` has an EC20 of > 400 µM (mitochondrial swelling; BALB/cByJ female mouse liver mitochondria; 30 min, with: succinate + rotenone; relative to: CaCl2 maximal swelling).
`CC(C)(C)NC(=O)[C@@H]1C[C@@H]2CCCC[C@@H]2CN1C[C@@H](O)[C@H](Cc1ccccc1)NC(=O)[C@H](CC(N)=O)NC(=O)c1ccc2ccccc2n1`: “log intrinsic permeability” -5.22 (in situ brain perfusion; rat; no efflux inhibition).
`CC(C)(C)c1nn(-c2cc(OCc3cn(Cc4ccccn4)nn3)c(Cl)cc2Cl)c(=O)o1` gave an IC50 of 13.5 ± 1.6 µM (Toxoplasma gondii; intracellular parasite growth, luminescence; HFF, wild type, NanoLuc reporter; 96 h).
Under “free concentration ratio”, `O=S(=O)(O)Oc1c[nH]c2ccccc12` is recorded as 77 (human hemodialysis patients, plasma ultrafiltrate; pre-treatment; relative to: hemodialysis over normal subjects).
Under “deviation from nominal”, `O=C(O)[C@H](c1ccccc1Cl)N1CCc2sccc2C1` is recorded as -1% (HPLC-MS/MS; feline EDTA plasma; 72 h, -20 °C, storage stability).
`C[C@@]12C[C@@]3(O)O[C@@H](O1)[C@]1(COC(=O)c4ccccc4)[C@H]3C[C@@]12O[C@@H]1O[C@H](CO)[C@@H](O)[C@H](O)[C@H]1O` has an accuracy of 100 % nominal (rat plasma QC samples; 11250 ng/mL, 45 days, -80 °C, long-term stability, high QC).
`O=C(c1ccc(-n2nc(C(F)(F)F)c3c2CCCC3)cc1)N1CCCC1` gave a brain concentration of 37 ng/g (rat; oral, 0.3 mg/kg, 30 min).
The EC20 of `Cc1nc(Nc2ncc(C(=O)Nc3c(C)cccc3Cl)s2)cc(N2CCN(CCO)CC2)n1` is reported as 168 µM (cytochrome c release, ELISA; BALB/cByJ female mouse liver mitochondria; 30 min; relative to: alamethicin maximal release).
For `C[C@@H](O)[C@H]1C(=O)N2C(C(=O)O)=C(S[C@@H]3CN[C@H](C(=O)N(C)C)C3)[C@H](C)[C@H]12`, “time above MIC” read 83% (pig, Danish Landrace, plasma; intravenous, 1000 mg over 10 min, 450 min dosing interval, with: 0.25 µg/mL MIC; relative to: dosing interval).
`C#C[C@]1(CO)O[C@@H](n2cnc3c(N)nc(F)nc32)C[C@@H]1O` has an AUC(0-168 h) of 3.26 µM·h (human, plasma; oral, 30 mg once weekly, week 1).
